Experimental data from different studies.
Each line is one published result; not all experiments were run side by side. pIC50: −log10 of the molar value.
Cell line: HUVEC

`C/C=C(/C)C(=O)OC[C@H]1[C@@H](Cc2ccc(C(C)(C)C)cc2)CO[C@@H]1c1ccc(F)cc1`: proliferation “no effect” (30 µM).
The inhibition of `CC(C)(C)c1cc2c(O)c(c1)Cc1cc(C(C)(C)C)cc(c1OCC(=O)NCc1ccncc1)Cc1cc(C(C)(C)C)cc(c1O)Cc1cc(C(C)(C)C)cc(c1OCC(=O)NCc1ccncc1)COC2` is reported as 25% (cell growth or viability, MTT; 15 µM, 72 h).
For `COc1ccc2cc3[n+](cc2c1OCc1cn(Cc2c(Cl)cc(Cl)cc2Cl)nn1)CCc1cc2c(cc1-3)OCO2`, the pIC50 was 4.52 (cell growth or viability, MTT).
`CC(C)(C)c1cc2c(O)c(c1)Cc1cc(C(C)(C)C)cc(c1OCC(=O)Nc1cccc3ncccc13)Cc1cc(C(C)(C)C)cc(c1O)Cc1cc(C(C)(C)C)cc(c1OCC(=O)Nc1cccc3ncccc13)COC2` gave an inhibition of under 0% (cell growth or viability, MTT; 15 µM, 72 h).
The IC50 ratio of `CC(=O)N[C@@H](CCCCN)C(=O)N[C@@H](Cc1c[nH]c2ccccc12)C(=O)N[C@@H](Cc1ccccc1)C(=O)N[C@@H](CCC(=O)O)C(=O)N[C@H](C(=O)N[C@@H](Cc1c[nH]c2ccccc12)C(=O)N[C@@H](Cc1ccccc1)C(=O)N[C@H](C(=O)N[C@@H](CCC(=O)O)C(=O)N[C@@H](Cc1c[nH]c2ccccc12)C(=O)N1CCC[C@H]1C(=O)N[C@@H](CCCCN)C(=O)N[C@@H](CCCCN)C(=O)N[C@@H](CCCNC(=N)N)C(=O)N[C@@H](CCCCN)C(=O)NCCS)[C@@H](C)O)[C@@H](C)O` is reported as 70 fold (cyclin B1 protein, western blot; antisense delivery; relative to: MPG over compound).
For `CC(C)(C)c1cc2c(O)c(c1)Cc1cc(C(C)(C)C)cc(c1OCC(=O)NCc1cccnc1)Cc1cc(C(C)(C)C)cc(c1O)Cc1cc(C(C)(C)C)cc(c1OCC(=O)NCc1cccnc1)COC2`, the inhibition was 33% (cell growth or viability, MTT; 15 µM, 72 h).
`CC[C@@H](C)[C@H]1NC(=O)[C@@H]([C@H](C)O)NC(=O)[C@@H](Cc2c[nH]cn2)NC(=O)CNC(=O)[C@@H](CCCNC(=N)N)NC(=O)CNC(=O)[C@@H](Cc2ccccc2)NC1=O` — result for “VEGF-induced cytoskeletal changes”: “inhibited” (inhibitor, immunofluorescence; 100 nM, 1 h pretreatment, together with: VEGF 200 ng/mL for 30 min).
For `CNC(=O)c1c(C)oc2cc(Oc3ncnc4cc(OC)c(OCCCCCCC(=O)NO)cc34)ccc12`, the tubule length was 53% (tube formation; 10 µM, 72 h; relative to: control).
`COc1ccc2cc3[n+](cc2c1OCc1cn(Cc2ccccc2C#N)nn1)CCc1cc2c(cc1-3)OCO2` gave a pIC50 of 4.83 (cell growth or viability, MTT).
`CC(C)(C)c1cc2c(O)c(c1)Cc1cc(C(C)(C)C)cc(c1OCC(=O)Nc1nccs1)Cc1cc(C(C)(C)C)cc(c1O)Cc1cc(C(C)(C)C)cc(c1OCC(=O)Nc1nccs1)COC2` gave an inhibition of 43% (cell growth or viability, MTT; 15 µM, 72 h).
With `COc1ccc2cc3[n+](cc2c1OCc1cn(Cc2ccc(OC(F)(F)F)cc2)nn1)CCc1cc2c(cc1-3)OCO2` the pIC50 was 4.97 (cell growth or viability, MTT).
`O=Cc1c(O)ccc2ccccc12` — result for “log2 fold change”: -3.24 (RNA sequencing, refers to: TFPI2; 75 µM, 24 h; relative to: DMSO).
For `COc1ccc2cc3[n+](cc2c1OCc1cn(Cc2c(F)cccc2F)nn1)CCc1cc2c(cc1-3)OCO2`, the pIC50 was 4.33 (cell growth or viability, MTT).
For `CC[C@H](NC(=O)[C@H](Cc1ccccc1)NC(=O)[C@H](CCSC)NC(=O)[C@H](Cc1ccccc1)NC(=O)[C@@H]1CCCN1C(=O)[C@H](CCSC)NC(=O)[C@@H](NC(=O)[C@H](CO)NC(=O)[C@H](Cc1ccccc1)NC(=O)[C@H](CCCNC(=N)N)NC(=O)[C@H](CCCNC(=N)N)NC(=O)[C@@H](N)CC(C)C)[C@@H](C)O)C(=O)N[C@@H](CC(N)=O)C(=O)N[C@H](C(=O)N[C@@H](CC(N)=O)C(=O)N[C@@H](CC(N)=O)C(=O)N[C@H](C(=O)N[C@@H](CC)C(=O)N[C@@H](CC(N)=O)C(=O)N[C@@H](Cc1ccccc1)C(N)=O)C(C)C)[C@@H](C)CC`, the inhibition was 60% (cell migration, inhibitor; 50 µM).
`CC(C)(C)c1cc2c(O)c(c1)Cc1cc(C(C)(C)C)cc(c1OCC(=O)Nc1cccc3cccnc13)Cc1cc(C(C)(C)C)cc(c1O)Cc1cc(C(C)(C)C)cc(c1OCC(=O)Nc1cccc3cccnc13)COC2` has an inhibition of 23% (cell growth or viability, MTT; 15 µM, 72 h).
`COc1ccc2cc3[n+](cc2c1OCc1cn(Cc2ccc(C#N)cc2)nn1)CCc1cc2c(cc1-3)OCO2` gave a pIC50 of 4.33 (cell growth or viability, MTT).

Excerpt of the above:
The inhibition of `CC(C)(C)c1cc2c(O)c(c1)Cc1cc(C(C)(C)C)cc(c1OCC(=O)NCc1ccncc1)Cc1cc(C(C)(C)C)cc(c1O)Cc1cc(C(C)(C)C)cc(c1OCC(=O)NCc1ccncc1)COC2` is reported as 25% (cell growth or viability, MTT; 15 µM, 72 h).
For `COc1ccc2cc3[n+](cc2c1OCc1cn(Cc2c(Cl)cc(Cl)cc2Cl)nn1)CCc1cc2c(cc1-3)OCO2`, the pIC50 was 4.52 (cell growth or viability, MTT).
